Assay results collected from several papers.
Protocols differ between the studies behind these lines.

SMILES | assay | system | conditions | scale | endpoint | value
OC(CCN1CCCCC1)(c1ccccc1)C1CC2C=CC1C2 (stereo not drawn) | resting-state EEG | healthy elderly humans | oral, 2 mg, eyes closed, LS mean | baseline: baseline | change in EEG Beta1-power Fz-Cz | -10%
NC(=O)c1cnc2[nH]ccc2c1N[C@@H]1[C@@H]2CC3C[C@H]1C[C@@](O)(C3)C2 | flow cytometry | Japanese healthy men, blood | oral, 30 mg twice daily, 72 h after day 7 dose | baseline: baseline | CD8+ naive T-cell change | -0.77%
c1ccc(-c2n[nH]cc2-c2ccnc3ccccc23)nc1 | kinase binding, competitor, MIB/MS competition, item: CTK1 | Candida albicans cell lysate | 1 µM | baseline: DMSO | log2 fold change | 0.478
NC(=O)C1=CN([C@@H]2O[C@H](COP(=O)(O)OP(=O)(O)OC[C@H]3O[C@@H](n4cnc5c(N)ncnc54)[C@H](O)[C@@H]3O)[C@@H](O)[C@H]2O)C=CC1 | binding, equilibrium dialysis LC-MS | – | 5 µM, thermostabilized A2AR-BRIL construct | baseline: no-protein control, direction not given | z-scored log2 fold change | -4.67
CC(C)NCC(O)c1ccc(O)c(O)c1 (stereo not drawn) | – | ventricular cardiomyocytes, C57BL/6 mouse | dose not given, 0.016 s | – | sarcomere length | 1.72 µm
NC(=O)NCCC[C@H](N)C(=O)O | binding, equilibrium dialysis LC-MS | – | 5 µM, thermostabilized A2AR-BRIL construct | baseline: no-protein control, direction not given | z-scored log2 fold change | 1.34
N#Cc1ccn2c(-c3ccncc3)c(-c3ccc(F)cc3)nc2c1 | kinase binding, competitor, MIB/MS competition, item: MCK1 | Candida albicans cell lysate | 10 µM | baseline: DMSO | log2 fold change | 0.392
Cc1ncc(COP(=O)(O)O)c(C=O)c1O | binding, equilibrium dialysis LC-MS | – | 5 µM, thermostabilized A2AR-BRIL construct | baseline: no-protein control, direction not given | z-scored log2 fold change | 1.13
C[C@H](Oc1ccc(Br)cc1-c1ccon1)C(=O)O | muscle velocity recovery cycles | human, tibialis anterior muscle | 400 mg once daily, multiple doses, multiple ascending dose | baseline: placebo | interstimulus interval at ESN | -0.88 ms

A few entries again:
SMILES | assay | system | conditions | scale | endpoint | value
C[C@H](Oc1ccc(Br)cc1-c1ccon1)C(=O)O | muscle velocity recovery cycles | human, tibialis anterior muscle | 400 mg once daily, multiple doses, multiple ascending dose | baseline: placebo | interstimulus interval at ESN | -0.88 ms
